Experimental data from different studies.
Each numbered part is a random draw from the data of one study; scales do not carry over between parts.

Block 1 — method: protein-binding microarray; form: double-stranded DNA, one strand shown; medium: in vitro; tested at: 250 nM; setting: 60-bp whole probe; with: salmon DNA 0.4 mg/ml; reference: random background probes; direction: higher = stronger binding; shared flanks, not repeated: GCCTAGCAC … GTCTTGATTCGCTTGACGCTGCTG
Target: Interferon regulatory factor 7, full length, phosphomimetic (IRF7, Homo sapiens, UniProt Q92985, residues 1-503, S101K/S471D/S472D/S475D/S476D/S477D/S483D/S484D/S487D)
Construct (chain): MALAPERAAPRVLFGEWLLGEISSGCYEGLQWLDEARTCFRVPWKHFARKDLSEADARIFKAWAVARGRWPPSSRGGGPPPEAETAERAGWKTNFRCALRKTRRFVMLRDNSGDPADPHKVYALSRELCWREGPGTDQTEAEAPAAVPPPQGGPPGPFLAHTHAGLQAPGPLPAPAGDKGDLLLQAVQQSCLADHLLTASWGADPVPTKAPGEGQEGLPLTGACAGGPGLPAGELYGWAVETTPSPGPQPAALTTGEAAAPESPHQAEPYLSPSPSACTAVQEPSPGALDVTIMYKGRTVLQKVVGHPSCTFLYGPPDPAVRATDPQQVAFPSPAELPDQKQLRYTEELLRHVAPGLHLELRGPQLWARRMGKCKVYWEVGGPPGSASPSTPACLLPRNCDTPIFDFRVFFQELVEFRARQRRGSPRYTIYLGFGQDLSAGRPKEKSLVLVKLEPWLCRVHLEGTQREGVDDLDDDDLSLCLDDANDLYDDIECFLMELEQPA
For `AATATTCTGCTTTGCAATAAGTGCTAG`, the log fluorescence was 0.711 z-score.
`TTAGGTTTCGTTTCCGGTTAGTGCTAG` has a log fluorescence of 13.2 z-score.
The log fluorescence of `TTAGATTTTGGGACTGGATTAGTGCTA` is reported as 0.189 z-score.
`TCAGTGATAGCTCTGGTACTGTGCTAG` gave a log fluorescence of -0.511 z-score.
With `TTAGACCTGGGGTATCGATTAGTGCTA` the log fluorescence was 0.136 z-score.
The log fluorescence of `CCAGACTGCAGAGCAAGATCGTGCTAG` is reported as -0.795 z-score.
The log fluorescence of `GACGTTTTCAGTTCCGAGACGTGCTAG` is reported as 1.46 z-score.
`GACGATTTCAGACCGGAGACGTGCTAG` gave a log fluorescence of -0.159 z-score.

Block 2 — read-out: enzyme activity; action: inhibitor; tested at: 20 µM; setting: hit confirmation
Target: Replicase polyprotein 1ab, main protease (rep, Severe acute respiratory syndrome coronavirus 2, UniProt P0DTD1)
`CCCCOc1ccc(C(=O)CCN2CCCCC2)cc1` has an inhibition of 33.4%.
The inhibition of `CC(=O)OCC1=C(C(=O)O)N2C(=O)[C@@H](NC(=O)Cc3cccs3)[C@H]2SC1` is reported as 4.1%.
The inhibition of `CN1CCN(CCCCN2C(=O)CN(/N=C/c3ccc(-c4ccc(Cl)cc4)o3)C2=O)CC1` is reported as 41.1%.

Block 3 — method: universal PBM; form: double-stranded DNA, one strand shown; medium: in vitro; tested at: not given; direction: higher = stronger binding
Target: Sal-like protein 4, full length isoform B (SALL4, Homo sapiens, UniProt Q9UJQ4-2, residues 1-616)
Setting: 8-mer, flanks averaged, mean of replicates
Target sequence (chain): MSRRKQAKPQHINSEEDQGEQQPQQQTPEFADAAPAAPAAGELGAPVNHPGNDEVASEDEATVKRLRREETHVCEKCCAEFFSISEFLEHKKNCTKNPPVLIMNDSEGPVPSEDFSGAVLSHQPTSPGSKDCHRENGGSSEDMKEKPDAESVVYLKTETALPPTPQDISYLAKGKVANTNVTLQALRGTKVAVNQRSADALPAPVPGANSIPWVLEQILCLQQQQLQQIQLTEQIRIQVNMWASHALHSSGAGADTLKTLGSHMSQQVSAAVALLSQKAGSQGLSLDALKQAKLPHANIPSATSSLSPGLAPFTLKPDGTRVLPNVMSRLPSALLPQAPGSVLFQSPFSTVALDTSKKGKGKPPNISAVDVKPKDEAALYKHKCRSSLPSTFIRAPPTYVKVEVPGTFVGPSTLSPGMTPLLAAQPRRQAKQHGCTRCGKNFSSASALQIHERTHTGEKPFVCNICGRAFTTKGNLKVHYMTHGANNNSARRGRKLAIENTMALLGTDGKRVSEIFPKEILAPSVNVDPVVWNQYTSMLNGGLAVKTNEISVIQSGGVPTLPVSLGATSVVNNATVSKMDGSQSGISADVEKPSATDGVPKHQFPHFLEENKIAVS
With `AAATGGAT` the E-score was 0.192.
`AGGATGGG` gave an E-score of -0.258.
For `CGACGGGC`, the E-score was -0.163.
`AGTCATGG` gave an E-score of 0.00515.
The E-score of `CATAGCAG` is reported as -0.00105.
The E-score of `CGCCAAAG` is reported as -0.236.
With `AAAGGATA` the E-score was 0.22.
The E-score of `AGAAGTGG` is reported as 0.0196.

Block 4 — method: RNA Bind-n-Seq; form: RNA; medium: in vitro; tested at: 365 nM; reference: no-protein control; direction: higher = stronger binding
Target: RNA binding protein fox-1 homolog 2, RRM domain, GST-SBP tag (RBFOX2, Homo sapiens, UniProt O43251-10, residues 100-194)
Setting: natural RNA segment, single round, ends assumed
Shared flanks, not repeated: GGGAGUUCUACAGUCCGACGAUC … UGGAAUUCUCGGGUGCCAA
Construct (chain): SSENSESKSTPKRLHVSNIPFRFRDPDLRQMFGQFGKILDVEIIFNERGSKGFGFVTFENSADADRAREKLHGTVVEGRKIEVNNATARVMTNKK
For `CUGACAUGAUUUGAGAAGCUGCACACAUAGGCAGAGUCAUUUUCCUGUUUACAUUGUUUGUUUGGGGAAGAUUGGUAGGGGUCUAAUUACUGUUCACUUCCUUGUUGUAU`, “RBNS enrichment (R)” read 0.614.
Under “RBNS enrichment (R)”, `GGAGUUGUAGUAGAAAAGGCAUCUGCUUUUCAGAAAGACUAUUAUUUCCUAACCAUGAGAAGCAGACUCUAAUAUUCAUAUUUAAACAAAGCAAUUUUUUUUAUUACUAA` is recorded as 0.617.
`CUCUUCCCUGCAGUGUUUUCAUUUUAUUUUAGCCAAACAUUUUGCCUGUUUUCUGUUUCAAACAUGAUAGUUGAUAUGAGACUGAAACCCCUGGGUUGUGGAGGGAAAUU` — result for “RBNS enrichment (R)”: 0.636.
`UUCUCUCCUGGUUUGCAGCUGUCUUCAAAUCCCCCCAUGACCCGCUCUUCCCACUCCUUCAAGUUGCCCUCACAAACCAAUGUGGCAAGACUACUGGACUUGUAUCCAUG`: “RBNS enrichment (R)” 0.652.
`ACAGCGUGCUGUUCCGCAAGCAGCCGUUCCUGUGGCGCGCUGCACUGCUCUACUACACCAUCCACCGCGCCGCGCGCAUGUCCUUCCGUCAGCUCUUCCAGGACCUGGAG`: “RBNS enrichment (R)” 0.668.
`UUUAUACAUCAGCUCCUUACUGCUUAUUAAUCUGUAUUGUACCCACGAUAUCAGGAGUGAAGCAGACGCUGGCCUUUCCAUGAAUAGCCACCACAUGGCCCAGCAUCUCU` — result for “RBNS enrichment (R)”: 0.519.
`AUGCAGUCAAUUAUUCACGCCAUGCACAGCAUAAUUUGCUCCUUUGUGUGGAGUGGUGUGUCAGCCCUUGAACAUCUCCUCCAAAGAGACUAGAAGAGUCUUAAAUUAUA`: “RBNS enrichment (R)” 0.333.
For `AUAGGAUGCCAUCAGCCAUCGAGGGGGCGUCUUGCCUCUGCCCAUCGCUCCAGGAGUCUACGCUGUCGUGGAAAUUGUGCCCACCCCCAUCUGUGUGUUGUAGCCACUCA`, “RBNS enrichment (R)” read 0.265.

Block 5 — action: inhibitor; tested at: 20 µM
Target: Replicase polyprotein 1ab, nsp13 helicase (rep, Severe acute respiratory syndrome coronavirus 2, UniProt P0DTD1)
`CCCOC(=O)c1ccccc1` gave an inhibition of 3.98%.
`O=C(O)[C@@H]1C[C@H](CP(=O)(O)O)CCN1` has an inhibition of -4.74%.
`CS(=O)(=O)c1ccc([C@@H](O)[C@@H](CO)NC(=O)C(Cl)Cl)cc1` has an inhibition of 3.55%.
`C[C@]12CCC(=O)C=C1C=C[C@@H]1[C@@H]2CC[C@@]2(C)[C@H]1CC[C@@]21CCC(=O)O1` gave an inhibition of 8.61%.
The inhibition of `NC(=O)NC1NC(=O)NC1=O` (stereo not shown) is reported as -1.62%.
With `O=C(O)c1cc(O)c2c(c1)C(=O)c1cccc(O)c1C2=O` the inhibition was 8.38%.
For `CN1CC[C@H](c2c(O)cc(O)c3c(=O)cc(-c4ccccc4Cl)oc23)[C@H](O)C1`, the inhibition was -0.28%.
`O=C1NC(=O)C(c2cnc3ccccn23)=C1c1cn2c3c(cc(F)cc13)CN(C(=O)N1CCCCC1)CC2` has an inhibition of 11%.
`O=C(O)c1cccnc1` has an inhibition of 9.02%.
`O=P(O)(O)C(O)(Cn1ccnc1)P(=O)(O)O` has an inhibition of 5.94%.
The inhibition of `Cc1ccc(C(=O)Nc2ccc(Oc3cc4cnn(C)c4cc3-c3cn[nH]c3)c(F)c2)c(=O)n1-c1ccc(F)cc1` is reported as -3.62%.
`O=C(O)Cc1cccnc1C(=O)O` gave an inhibition of 1.59%.
For `O=C(Nc1ccc(C(O)(C(F)(F)F)C(F)(F)F)cc1)c1ccc(C(F)(F)F)cc1`, the inhibition was 3.85%.
`O=C(O)c1cc(O)c(O)c(O)c1` has an inhibition of 5.84%.
`COc1nc(N)nc2c1ncn2[C@@H]1O[C@H](CO)[C@@H](O)[C@@H]1O` gave an inhibition of 3.88%.
`CC(C)C(=O)OCC(=O)[C@@]12O[C@H](C3CCCCC3)O[C@@H]1C[C@H]1[C@@H]3CCC4=CC(=O)C=C[C@]4(C)[C@H]3[C@@H](O)C[C@@]12C` has an inhibition of 4.89%.
With `COc1ccc(-c2ccc3cc(C(=O)O)ccc3c2)cc1[C@]12C[C@H]3C[C@H](C[C@H](C3)C1)C2` the inhibition was 5.9%.
`CC(C)(O)c1ccn2c(-c3ccc(F)c(-c4ccc(F)cc4C#N)c3)cnc2c1F` gave an inhibition of 10.6%.
The inhibition of `COc1ccc2cc(CCC(C)=O)ccc2c1` is reported as 0.57%.
For `CC(C)c1cc2c(cc1S(=O)(=O)O)[C@@]1(C)CCC[C@@](C)(C(=O)O)[C@@H]1CC2`, the inhibition was 3.26%.
`Cc1cccc(N2CC(CO)OC2=O)c1` (stereo not shown) gave an inhibition of 7.09%.
`COc1ccc(-c2cc(=S)ss2)cc1` gave an inhibition of 7.57%.
The inhibition of `N=C(N)N` is reported as 2.2%.
The inhibition of `CN(C)CCc1ccc(O)cc1` is reported as 9.6%.
`Cc1ccc(C(=O)Cn2c3c(sc2=N)CCCC3)cc1` gave an inhibition of 3.63%.

For quick reference, copied from above (block 5):
`O=C1NC(=O)C(c2cnc3ccccn23)=C1c1cn2c3c(cc(F)cc13)CN(C(=O)N1CCCCC1)CC2` has an inhibition of 11%.
`O=C(O)c1cccnc1` has an inhibition of 9.02%.
The inhibition of `COc1ccc2cc(CCC(C)=O)ccc2c1` is reported as 0.57%.
